Measurements pooled from the literature.
Each numbered part is a random draw from the data of one study; scales do not carry over between parts. Several values in a cell are separate wells, animals, samples, runs or records.
Sequence of UniProt P11802 (whole entry, looked up): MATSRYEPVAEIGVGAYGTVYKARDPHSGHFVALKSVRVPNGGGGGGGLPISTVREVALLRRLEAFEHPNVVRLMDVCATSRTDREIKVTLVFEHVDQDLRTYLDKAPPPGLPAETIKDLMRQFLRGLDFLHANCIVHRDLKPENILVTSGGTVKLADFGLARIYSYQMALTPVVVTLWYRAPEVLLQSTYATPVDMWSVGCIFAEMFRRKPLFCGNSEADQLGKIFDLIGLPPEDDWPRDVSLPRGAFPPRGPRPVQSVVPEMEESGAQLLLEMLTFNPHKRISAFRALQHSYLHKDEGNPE
Sequence of UniProt Q9BYT3 (whole entry, looked up): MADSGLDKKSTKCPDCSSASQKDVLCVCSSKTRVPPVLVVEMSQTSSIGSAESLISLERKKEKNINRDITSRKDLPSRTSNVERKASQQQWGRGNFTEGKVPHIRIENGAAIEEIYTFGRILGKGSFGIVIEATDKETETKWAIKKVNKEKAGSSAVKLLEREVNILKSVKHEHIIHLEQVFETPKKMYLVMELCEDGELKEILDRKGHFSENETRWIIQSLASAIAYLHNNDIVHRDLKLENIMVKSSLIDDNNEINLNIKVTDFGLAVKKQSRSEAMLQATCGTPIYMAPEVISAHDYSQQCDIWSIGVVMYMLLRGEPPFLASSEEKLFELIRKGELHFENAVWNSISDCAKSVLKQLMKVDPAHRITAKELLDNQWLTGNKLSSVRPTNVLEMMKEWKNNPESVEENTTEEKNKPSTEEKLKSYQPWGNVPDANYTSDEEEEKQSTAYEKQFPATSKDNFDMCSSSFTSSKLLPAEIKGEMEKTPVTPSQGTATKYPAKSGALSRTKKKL
Sequence of UniProt Q04771 (whole entry, looked up): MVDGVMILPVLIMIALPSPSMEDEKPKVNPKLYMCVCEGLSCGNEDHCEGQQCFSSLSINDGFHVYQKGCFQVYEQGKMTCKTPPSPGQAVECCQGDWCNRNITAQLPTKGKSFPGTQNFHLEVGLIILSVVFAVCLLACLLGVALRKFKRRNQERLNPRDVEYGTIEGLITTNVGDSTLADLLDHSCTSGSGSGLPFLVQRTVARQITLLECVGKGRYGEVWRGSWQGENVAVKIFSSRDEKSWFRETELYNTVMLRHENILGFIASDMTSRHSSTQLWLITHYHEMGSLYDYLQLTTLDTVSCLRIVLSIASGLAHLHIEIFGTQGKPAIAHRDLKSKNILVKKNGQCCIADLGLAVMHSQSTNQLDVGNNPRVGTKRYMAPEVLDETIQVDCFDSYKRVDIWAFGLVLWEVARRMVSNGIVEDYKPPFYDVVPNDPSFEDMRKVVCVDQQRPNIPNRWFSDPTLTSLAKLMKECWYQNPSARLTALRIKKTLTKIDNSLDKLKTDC
Sequence of UniProt O15264 (whole entry, looked up): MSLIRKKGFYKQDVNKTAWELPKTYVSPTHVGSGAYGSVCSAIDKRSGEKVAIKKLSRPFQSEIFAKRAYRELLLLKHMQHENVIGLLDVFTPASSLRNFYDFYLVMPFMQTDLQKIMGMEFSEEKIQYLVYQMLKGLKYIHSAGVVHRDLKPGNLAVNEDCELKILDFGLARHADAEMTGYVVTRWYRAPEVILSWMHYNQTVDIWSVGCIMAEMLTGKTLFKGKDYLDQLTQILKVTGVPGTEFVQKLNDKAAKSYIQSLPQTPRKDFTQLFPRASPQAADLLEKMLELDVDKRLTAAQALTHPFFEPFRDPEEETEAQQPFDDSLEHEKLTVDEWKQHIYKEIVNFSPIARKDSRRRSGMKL
Sequence of UniProt Q15418 (whole entry, looked up): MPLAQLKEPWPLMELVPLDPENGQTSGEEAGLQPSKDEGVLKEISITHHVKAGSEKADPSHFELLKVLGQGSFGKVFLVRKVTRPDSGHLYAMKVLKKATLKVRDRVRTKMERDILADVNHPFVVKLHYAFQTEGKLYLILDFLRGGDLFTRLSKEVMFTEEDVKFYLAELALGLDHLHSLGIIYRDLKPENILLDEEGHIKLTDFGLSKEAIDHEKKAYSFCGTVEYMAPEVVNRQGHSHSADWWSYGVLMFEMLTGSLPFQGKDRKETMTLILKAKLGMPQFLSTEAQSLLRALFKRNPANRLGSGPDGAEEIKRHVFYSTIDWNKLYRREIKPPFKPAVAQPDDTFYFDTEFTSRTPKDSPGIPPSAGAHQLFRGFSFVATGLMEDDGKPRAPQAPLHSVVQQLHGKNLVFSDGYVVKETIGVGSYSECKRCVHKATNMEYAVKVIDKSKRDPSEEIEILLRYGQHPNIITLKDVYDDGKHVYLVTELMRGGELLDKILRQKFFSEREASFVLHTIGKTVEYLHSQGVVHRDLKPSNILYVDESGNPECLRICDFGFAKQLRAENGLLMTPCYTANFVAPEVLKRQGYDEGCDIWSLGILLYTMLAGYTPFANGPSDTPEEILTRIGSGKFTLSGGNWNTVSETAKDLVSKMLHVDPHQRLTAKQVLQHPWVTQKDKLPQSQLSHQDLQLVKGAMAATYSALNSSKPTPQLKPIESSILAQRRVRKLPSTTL
Sequence of UniProt Q8TD08 (whole entry, looked up): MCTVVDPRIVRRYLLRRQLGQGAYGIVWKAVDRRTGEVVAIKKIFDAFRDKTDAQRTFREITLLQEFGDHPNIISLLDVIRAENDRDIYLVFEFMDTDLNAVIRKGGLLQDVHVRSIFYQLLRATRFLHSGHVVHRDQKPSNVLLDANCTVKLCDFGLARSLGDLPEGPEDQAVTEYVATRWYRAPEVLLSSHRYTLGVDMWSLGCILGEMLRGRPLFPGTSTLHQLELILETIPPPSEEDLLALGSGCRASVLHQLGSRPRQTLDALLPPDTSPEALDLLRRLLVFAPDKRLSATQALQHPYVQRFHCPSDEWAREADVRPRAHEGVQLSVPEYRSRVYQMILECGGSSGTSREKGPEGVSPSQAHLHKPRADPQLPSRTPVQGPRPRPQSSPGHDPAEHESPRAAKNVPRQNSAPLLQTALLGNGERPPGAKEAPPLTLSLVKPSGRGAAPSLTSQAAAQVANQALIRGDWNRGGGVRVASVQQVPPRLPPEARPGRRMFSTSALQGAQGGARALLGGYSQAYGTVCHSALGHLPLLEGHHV
Sequence of UniProt Q6PHR2 (whole entry, looked up): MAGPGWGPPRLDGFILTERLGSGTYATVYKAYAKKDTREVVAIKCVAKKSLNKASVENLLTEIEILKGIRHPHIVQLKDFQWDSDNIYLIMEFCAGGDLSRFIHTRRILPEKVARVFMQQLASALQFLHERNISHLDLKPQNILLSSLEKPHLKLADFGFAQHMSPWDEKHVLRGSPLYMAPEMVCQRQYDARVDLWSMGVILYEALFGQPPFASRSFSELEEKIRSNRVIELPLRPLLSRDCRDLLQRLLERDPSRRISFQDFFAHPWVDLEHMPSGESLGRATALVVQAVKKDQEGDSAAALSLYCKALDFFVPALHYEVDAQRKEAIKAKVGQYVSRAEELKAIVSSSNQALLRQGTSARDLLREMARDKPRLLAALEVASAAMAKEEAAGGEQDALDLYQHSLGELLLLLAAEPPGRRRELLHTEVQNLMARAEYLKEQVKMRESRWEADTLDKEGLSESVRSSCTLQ

Block 1 — method: phase 2a trial; species: idiopathic pulmonary fibrosis patients; measurement: patients with coagulopathy
SMILES: CC(C)n1cnc(-c2ccc(F)cc2)c1-c1ncc(C(=O)Nc2ccc(N3CCN(C)CC3)cc2)[nH]1
30 mg once daily, adverse event grade 2: 0%
60 mg once daily, adverse event grade 1: 0%
dose not given, adverse event grade 3, all dose arms pooled: 0%
30 mg once daily, adverse event grade 3: 0%
30 mg once daily, adverse event grade 5: 0%
30 mg once daily, adverse event grade 4: 0%
dose not given, adverse event grade 4, all dose arms pooled: 0%

Block 2 — effect on: cell-free assay; method: competition with immobilised ligand; concentration: 1 µM; measurement: remaining binding
Structure (SMILES): Cc1cc(-n2nc(Cc3cc(F)cc(C(F)(F)F)c3)nc2C)ccc1C(N)=O
Mitogen-activated protein kinase 15 (MAPK15, Homo sapiens, UniProt Q8TD08): 95%
Serine/threonine-protein kinase 33 (STK33, Homo sapiens, UniProt Q9BYT3): 100%
Activin receptor type-1 (ACVR1, Homo sapiens, UniProt Q04771): 100%
Ribosomal protein S6 kinase alpha-1, N-terminal kinase domain (RPS6KA1, Homo sapiens, UniProt Q15418): 100%
Cyclin-dependent kinase 4, with cyclin D1 (CDK4, Homo sapiens, UniProt P11802): 100%
Serine/threonine-protein kinase ULK3 (ULK3, Homo sapiens, UniProt Q6PHR2): 100%
Mitogen-activated protein kinase 13 (MAPK13, Homo sapiens, UniProt O15264): 100%

Block 3 — effect on: enzyme activity; mode: inhibitor; concentration: 0.5 µM; baseline: control; measurement: remaining activity
Target: MAP kinase-activated protein kinase 5 (MAPKAPK5, Homo sapiens, UniProt Q8IW41)
Target sequence (Q8IW41 1-473): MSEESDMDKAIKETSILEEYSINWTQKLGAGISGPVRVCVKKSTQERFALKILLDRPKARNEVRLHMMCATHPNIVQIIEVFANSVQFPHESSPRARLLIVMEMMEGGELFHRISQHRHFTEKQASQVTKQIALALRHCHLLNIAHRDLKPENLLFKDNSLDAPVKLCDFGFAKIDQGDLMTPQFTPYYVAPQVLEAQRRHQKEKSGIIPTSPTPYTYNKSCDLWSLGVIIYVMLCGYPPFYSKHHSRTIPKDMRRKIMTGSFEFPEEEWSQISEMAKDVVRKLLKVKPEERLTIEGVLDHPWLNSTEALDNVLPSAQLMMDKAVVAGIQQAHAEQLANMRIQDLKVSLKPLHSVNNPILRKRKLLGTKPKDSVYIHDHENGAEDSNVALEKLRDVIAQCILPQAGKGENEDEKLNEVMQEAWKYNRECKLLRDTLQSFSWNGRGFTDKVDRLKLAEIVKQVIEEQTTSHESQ
O=S(=O)(c1cccc2cnccc12)N1CCCNCC1: 72.6%
Cc1cccc(-c2[nH]c(C(C)(C)C)nc2-c2ccc3c(c2)OCO3)n1: 96.1%
Nc1ccc2ncnc(NCCc3ccc(Oc4ccccc4)cc3)c2c1: 101%
O=C1NC(=O)C(c2cn(CCCn3ccnc3)c3ccccc23)=C1Nc1ccccc1: 96.4%
COc1cc2ncnc(Nc3ccc(Oc4ccccc4)cc3)c2cc1OC: 98%
CC(C)[C@H](CO)Nc1nc(Nc2cc(N)cc(Cl)c2)c2ncn(C(C)C)c2n1: 95.8%
Nc1ncnc2n[nH]c(Nc3ccc(F)cc3)c12: 80.9%
COc1ccc(OC)c2c(=S)c3ccccc3[nH]c12: 109%
CCOC(=O)c1c(C)[nH]c(/C=C2\C(=O)Nc3ccccc32)c1C: 93.9%
Cc1ccc(Nc2nccc(N(C)c3ccc4c(C)n(C)nc4c3)n2)cc1S(N)(=O)=O: 100%
COc1ccc(CNC(=O)Nc2ncc([N+](=O)[O-])s2)cc1: 90.1%
COc1cc2ncnc(Nc3ccc(F)c(Cl)c3)c2cc1OCCCN1CCOCC1: 92.7%
Cc1ccc(NC(=O)c2ccc(CN3CCN(C)CC3)cc2)cc1Nc1nc(-c2cccnc2)cs1: 103%
O=c1c2ccccc2[nH]c(=S)n1CCN1CCC(=C(c2ccc(F)cc2)c2ccc(F)cc2)CC1: 101%
CNC(=O)c1cc(Oc2ccc(NC(=O)Nc3ccc(Cl)c(C(F)(F)F)c3)cc2)ccn1: 95.8%

Further values, each from its own experiment
CNC(=O)c1ccc(-c2cnn3ccc(C(=O)N(CC(=O)O)c4ccc(Cl)cc4)cc23)cc1  plasma concentration (female C57BL/6 IFN-γ-knockout mice, plasma; oral, 10 mg/kg, 1 h): 11 nM and 53 nM and 85 nM

A few entries again (block 2):
Cyclin-dependent kinase 4, with cyclin D1 (CDK4, Homo sapiens, UniProt P11802): 100%
Mitogen-activated protein kinase 15 (MAPK15, Homo sapiens, UniProt Q8TD08): 95%
Serine/threonine-protein kinase 33 (STK33, Homo sapiens, UniProt Q9BYT3): 100%
